Published values from different studies.
± gives the spread as reported.
Cell line: RAW264.7

The IC50 of `COc1cccc(-c2cc3ccccc3[nH]2)c1` is reported as 49.7 µM (NO release, inhibitor, Griess; LPS-stimulated).
`Cc1ccc(-c2cc(C(F)(F)F)nn2-c2ccc(S(N)(=O)=O)cc2)cc1` gave an IC50 of 13 µM (IL-6 release, inhibitor, ELISA; LPS-stimulated).
`COc1cc(O)cc(/C=C/c2ccccc2)c1` gave an IC50 of 8.5 µg/mL (NO release, inhibitor; LPS-stimulated).
`Cc1ccc(C)c(NC(=O)CSc2nnc(-c3ccc(NC(=O)c4cccnc4)cc3)n2N)c1` has an IC50 of 4.3 µM (TNF-α release, inhibitor, ELISA; LPS-stimulated).
The IC50 of `Cc1ccccc1-c1cc2ccccc2[nH]1` is reported as 2.8 µM (NO release, inhibitor, Griess; LPS-stimulated).
With `O=C(Nc1cc2ccccc2cc1C(=O)O)c1ccccc1` the IC50 was > 100 µM (cytotoxicity, MTT; together with: visible light, BSA).
`COC(=O)C1CCC(C(=O)CC(C)=O)C1=O` (stereo not shown) gave an IC50 of 1.61 ± 0.09 µM (cell viability, CCK-8; 48 h, together with: LPS 1 µg/mL).
For `C(=NOCc1ccccc1)c1c(-c2ccccc2)[nH]c2ccccc12`, the IC50 was 34.6 µM (NO release, inhibitor, Griess; LPS-stimulated).
`NCC1CC(=S)N2CC3CCCN4CCCC(C34)C2C1` (stereo not shown) gave an IC50 of 2.41 µM (osteoclast differentiation, TRAP activity; 3 d, together with: RANKL and CSF-1).
For `COc1cc(OC)cc(-c2cc3ccccc3[nH]2)c1`, the IC50 was 29.6 µM (NO release, inhibitor, Griess; LPS-stimulated).
`COc1cc(/C=C/c2ccccc2)cc(OC)c1` gave an IC50 of > 25 µg/mL (NO release, inhibitor; LPS-stimulated).
`Cc1ccc(C=Nn2c(-c3ccc(NC(=O)c4cccnc4)cc3)n[nH]c2=S)cc1` gave an IC50 of 47.2 µM (NO release, inhibitor, Griess; LPS-stimulated).
`CC(C)/C=C/c1c(O)cc(/C=C/c2ccc(O)c(O)c2)cc1O` gave an IC50 of 1.9 µg/mL (NO release, inhibitor; LPS-stimulated).
With `O=C(CSc1nnc(-c2ccc(NC(=O)c3cccnc3)cc2)o1)Nc1ccc(F)cc1` the IC50 was > 100 µM (NO release, inhibitor, Griess; LPS-stimulated).
For `CC(C)=CCc1c(O)cc(/C=C/c2ccccc2)cc1O`, the IC50 was 6.5 µg/mL (NO release, inhibitor; LPS-stimulated).
`O=C(CCNNC(=O)c1ccncc1)NCc1ccccc1` gave an IC50 of > 200 µg/mL (PGE2 release, inhibitor, ELISA; LPS-stimulated).
`O=C(CSc1nnc(-c2ccc(NC(=O)c3cccnc3)cc2)o1)Nc1ccccc1Cl` has an IC50 of 10.3 µM (TNF-α release, inhibitor, ELISA; LPS-stimulated).
`CC1(C)C=Cc2c(O)cc(/C=C/c3ccc(O)cc3)cc2O1` gave an IC50 of 7 µg/mL (NO release, inhibitor; LPS-stimulated).
The IC50 of `Nn1c(SCC(=O)Nc2ccccc2Cl)nnc1-c1ccc(NC(=O)c2cccnc2)cc1` is reported as 35.4 µM (TNF-α release, inhibitor, ELISA; LPS-stimulated).
`Oc1cc(O)cc(/C=C/c2ccccc2)c1` gave an IC50 of 6.9 µg/mL (NO release, inhibitor; LPS-stimulated).
`Nn1c(SCC(=O)Nc2ccc(F)cc2)nnc1-c1ccc(NC(=O)c2cccnc2)cc1` has an IC50 of 1.66 µM (IL-6 release, inhibitor, ELISA; LPS-stimulated).
`CC(=O)CC(=O)C1CCC(C(C)=O)C1=O` (stereo not shown) has an IC50 of 1.73 ± 0.15 µM (cell viability, CCK-8; 48 h, together with: LPS 1 µg/mL).
`CC(C)=CCc1c(O)cc(/C=C/c2ccc(O)cc2)cc1O` gave an IC50 of 4.1 µg/mL (NO release, inhibitor; LPS-stimulated).
With `COc1ccc2c(c1)c(CC(=O)O)c(C)n2C(=O)c1ccc(Cl)cc1` the IC50 was 44.7 µM (NO release, inhibitor, Griess; LPS-stimulated).
With `C#CCn1c(-c2ccccc2)cc2ccccc21` the IC50 was 44.3 µM (NO release, inhibitor, Griess; LPS-stimulated).
`CC(C)=CCC/C(C)=C/Cc1c(O)cc(/C=C/c2ccc(O)cc2O)cc1O` has an IC50 of 4.8 µg/mL (NO release, inhibitor; LPS-stimulated).
For `CCOC(=O)C1CCC(C(=O)CC(C)=O)C1=O` (stereo not shown), the IC50 was 1.94 ± 0.13 µM (cell viability, CCK-8; 48 h, together with: LPS 1 µg/mL).
The IC50 of `O=C(CSc1nnc(-c2ccc(NC(=O)c3cccnc3)cc2)o1)Nc1cccc(Br)c1` is reported as 8.06 µM (reactive oxygen species, inhibitor, fluorescence; LPS-stimulated).

For quick reference, copied from above:
For `CC(C)=CCc1c(O)cc(/C=C/c2ccccc2)cc1O`, the IC50 was 6.5 µg/mL (NO release, inhibitor; LPS-stimulated).
`Nn1c(SCC(=O)Nc2ccc(F)cc2)nnc1-c1ccc(NC(=O)c2cccnc2)cc1` has an IC50 of 1.66 µM (IL-6 release, inhibitor, ELISA; LPS-stimulated).
`Cc1ccc(-c2cc(C(F)(F)F)nn2-c2ccc(S(N)(=O)=O)cc2)cc1` gave an IC50 of 13 µM (IL-6 release, inhibitor, ELISA; LPS-stimulated).
`COC(=O)C1CCC(C(=O)CC(C)=O)C1=O` (stereo not shown) gave an IC50 of 1.61 ± 0.09 µM (cell viability, CCK-8; 48 h, together with: LPS 1 µg/mL).
